Published values gathered from unrelated publications.
Each numbered part is a random draw from the data of one study; scales do not carry over between parts.

Block 1
Target: RING finger protein unkempt homolog, zinc fingers 1-6, GST-SBP tag (UNK, Homo sapiens, UniProt Q9C0B0, residues 30-357)
UniProt Q9C0B0, sequence (30-357, looked up): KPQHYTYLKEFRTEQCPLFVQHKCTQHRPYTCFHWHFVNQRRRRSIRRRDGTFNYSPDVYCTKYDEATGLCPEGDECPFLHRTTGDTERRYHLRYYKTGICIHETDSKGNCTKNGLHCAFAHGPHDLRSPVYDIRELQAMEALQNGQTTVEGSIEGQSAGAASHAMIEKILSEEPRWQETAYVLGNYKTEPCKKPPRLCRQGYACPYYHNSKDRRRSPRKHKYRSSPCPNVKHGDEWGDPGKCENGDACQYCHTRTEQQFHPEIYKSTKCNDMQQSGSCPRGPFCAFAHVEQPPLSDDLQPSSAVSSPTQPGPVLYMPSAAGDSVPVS
Method: RNA Bind-n-Seq
Molecule type: RNA
Matrix: in vitro
Tested at: not given
Setting: RNA with constant flanks, human and mouse sites, ends assumed
Baseline: input RNA pool
Direction: higher = stronger binding
Constant ends, left off below: GGGAGUUCUACAGUCCGACGAUC … CAACAGAGGAUUGAGCAUCA
Oligonucleotide	bound/input enrichment
UCGCUGCCCCAGCCGCAGCAGGACGGCGGUGGCGGUGCUAGUAGCGGCGGGGGUGUGACCCCGCUGGUGGAAUACGAGGAUGUGAGCUCCCAGUCCGAGCAGGGGCUGCUGCUGGGGGGG	0.728 ratio
GGUUGGAUCCGAGGUGCAGCCUCAGAGGGAAGGAUUAAGAGCCGCUAGACUUUUUUUCUUUUCCCUUUUUCUCCUCUCAGUGGCACGGAGUCCGAAUUAAUUGGAUUUCAUUCACUGGGU	0.145 ratio
AAACACAGUGAUCACCGAAUGAGGGAAAAAGCAGACAUUCAACUUCUUGUUUACACUAUUGAUGACUUAAUUGAUAAGCUCUCAACUAUAGUUAACUAGUAUCACAUGUUUAGUUGGUAU	1.28 ratio
AACAAUGAAUUUAAGACAUAUGGCAUUGAACCUUGAUAUUGAAUUCACAAAGAAUUUCCUAUAGAGCACAGAUUUUUGUUAACAUGAGUCAUAACUGUUAACAAUAUUUUAUUUCUCUUA	0.251 ratio
CUGGGCAUUUAUAACUAGAUUCAUUAAGGAAUACAAAGAAAAUAUUUAAAGGGAUCAAUAAUGGUGUCUUCUGGCUGCAGAAUGCGAAGUCUGUGGUUUAUCAUUAUAAUCAGUUUCUCA	0.76 ratio
UCAUUUCCUUCAUAUUCUCAGAAGUCAGAAGAUGAUUCAGCUAAAUUUGACAGUAAUGAAGAAGAUUCUGCUUCUGUUUUUUCACCAUCAUUUGGUCUGAAACAGACAGAUAAAGUUCCA	0.106 ratio

Block 2
Target: Sal-like protein 4, full length isoform B (SALL4, Homo sapiens, UniProt Q9UJQ4-2, residues 1-616)
Method: universal PBM
Molecule type: double-stranded DNA, one strand shown
Matrix: in vitro
Tested at: not given
Setting: 8-mer, flanks averaged, mean of replicates
Direction: higher = stronger binding
Oligonucleotide	E-score
CGGCTACG	-0.258
CGCGTAAC	-0.0715
AAGATTAA	0.287
CGACAGCC	-0.175
ATACTCCA	0.161
CAGTCTGA	-0.128
GATGGTCC	-0.106
TCTACTAA	0.229
CCTCCGAC	-0.281
GTAGAGGA	-0.107
ACAAATGA	0.308
ACGTGGCT	-0.12
GTTGGGGA	-0.241
ACGTGGCC	-0.18
GCGGACGC	-0.271
CTCTGGTC	-0.0997
CGTTGTTC	-0.0228
CGTATTTA	0.24
ATTGACAA	0.198
AATTTTGA	0.326
AACGAAGA	0.0791
ACAACGGC	-0.154
TATCCAGA	0.101
ATTTGAAC	0.16
ACACACGC	0.114

Block 3
Target: Interferon regulatory factor 3, full length, phosphomimetic (IRF3, Homo sapiens, UniProt Q14653, residues 1-427, S386D/S396D/S398D/S402D/T404D/S405D)
Method: protein-binding microarray
Molecule type: double-stranded DNA, one strand shown
Matrix: in vitro
Tested at: 2540 nM top
Setting: 60-bp whole probe
Added: salmon DNA 0.4 mg/ml
Baseline: random background probes
Direction: higher = stronger binding
Constant ends, left off below: GCCTAGCAC … GTCTTGATTCGCTTGACGCTGCTG
Target sequence (chain): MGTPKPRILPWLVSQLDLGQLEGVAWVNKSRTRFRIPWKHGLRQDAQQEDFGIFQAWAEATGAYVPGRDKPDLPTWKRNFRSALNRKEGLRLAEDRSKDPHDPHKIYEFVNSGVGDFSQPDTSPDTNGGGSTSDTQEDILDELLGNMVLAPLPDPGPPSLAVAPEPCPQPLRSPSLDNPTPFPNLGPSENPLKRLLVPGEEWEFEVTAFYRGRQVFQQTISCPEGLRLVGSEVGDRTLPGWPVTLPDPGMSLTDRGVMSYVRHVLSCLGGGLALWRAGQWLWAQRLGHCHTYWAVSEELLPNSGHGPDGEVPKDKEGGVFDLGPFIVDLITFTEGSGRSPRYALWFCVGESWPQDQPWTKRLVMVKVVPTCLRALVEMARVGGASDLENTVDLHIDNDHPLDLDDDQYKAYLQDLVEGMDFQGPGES
Oligonucleotide	fitted relative affinity [z-score]
AGTGTTATAATATTATTGCAGTGCTAG	0.345
TTAGGACTTCTTTTCCTTTAGTGCTAG	1.26
GACGATTTCAGTCTCGAGAAGTGCTAG	2.34
GAGGATTTCAGTTCCGAGACGTGCTAG	2
GACGATATCAGAATGGAGACGTGCTAG	1
GAGTTTCCATTTTCTGAATGCGTGCTA	8.95
TTAGGTTTCGGGTTTCGGTTGGTGCTA	5.7
TTTTGCTTTCATTTATTTACGTGCTAG	4.3
GACGATCTCAATCTCGAGACGTGCTAG	1
CTAGTTTTACTTTCTATGTCGTGCTAG	4.72

Block 4
Target: Histone acetyltransferase KAT6A, winged helix 2, GST fusion (KAT6A, Homo sapiens, UniProt Q92794, residues 85-181)
Method: protein binding microarray
Molecule type: double-stranded DNA, one strand shown
Matrix: in vitro
Tested at: not given
Setting: 8-mer, flanks averaged, mean of 2 arrays, mostly near background
Baseline: not given
Direction: higher = stronger binding
Residues (chain): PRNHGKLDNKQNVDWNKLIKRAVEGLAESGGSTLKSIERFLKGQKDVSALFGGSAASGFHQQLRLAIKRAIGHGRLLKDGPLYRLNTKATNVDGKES
Oligonucleotide	E-score
GTTCGGGA	-0.0411
GTCTTTCA	0.0457
AAGAGGTA	-0.0166
GATAGGAC	-0.171
GGTGGCAA	0.0136
CGCATGCC	0.221
GATGTCTA	0.0357
GAGCAAGA	0.125
AATTACCC	-0.181
CGCTCTCC	0.0682
AATGTAAC	0.0935

Block 5
Target: RNA binding protein fox-1 homolog 2, RRM domain, GST-SBP tag (RBFOX2, Homo sapiens, UniProt O43251-10, residues 100-194)
Method: RNA Bind-n-Seq
Molecule type: RNA
Matrix: in vitro
Tested at: 365 nM
Setting: natural RNA segment, single round, ends assumed
Baseline: no-protein control
Direction: higher = stronger binding
Constant ends, left off below: GGGAGUUCUACAGUCCGACGAUC … UGGAAUUCUCGGGUGCCAA
Target sequence (chain): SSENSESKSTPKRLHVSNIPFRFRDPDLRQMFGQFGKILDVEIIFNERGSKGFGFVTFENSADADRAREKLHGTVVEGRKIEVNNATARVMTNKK
Oligonucleotide	RBNS enrichment (R)
GGGGUUUCUUCACGAUCGCACUGGAAGAUUUUAUAAGAGUUUUGGGGGGGGGGGGACAGUAAACGUCCUGAGCCACUUGGGUUCUUCAGGAGUUUCUCUUAGGGAAAGUU	1.1
AAAACAGACAUCUUUGAUUUCUGAUUAAGAAAAAGCACUCUACAUCUUUUUUUUUUAAGUUUUCUAAGUUUGUUCCUUCUGAGAGAUUAAGUAAAAAACACCUUUAAAAU	0.415
AUGCUGGAGGUACCCCCGAGGCACAGGCACUGCCCGUUCCCCUUGCCUGGGCUUCAGGCCUUCUGGCACCUUCUCAGGACACAAGUGGCUGCCCAACCCUGACUCAGAGA	0.44
GUUGUGUGGUACACCUGGCAUGGGUGGUGGUAUUCCUUGAAAUCUGUGGUUAUGAAAAUUAGGCCAAGUGAUUUUAUUCCAAAUAUUAUUUAGUUGCCCUCAUUGGGAUC	2.02
CCAAGAGAAACCUCAGUUUGGCAUGGUUCUUCAGGGUAGCUUCCGAGUAGAAAUAGUCUGCUGCAAAUCCUAAACUUAAGAUCCCUGCGCUAGGUUGCUAGAGACUGCGG	0.601
CGCUCGGUGGAGGGACGCGUGCGGCGGGACGGUGCCUACGGGUACUUGCAGCUGUGUCCCAUGUGGCAUCCCAGAGCUGCGCCCUGCUGGUCUCUGUGAGCGCCACGCUG	0.274
GUAUGUGGAAUUCUGUCUCUUGGUAAAGCUCAAAGCCAGGCUAGCCUGAGGUGGCGCAGGGCUCUCCUUCCUGUCCCUUCGAUCUCCUUGAGAAUUAAGAGCUGGCAGCU	0.574
GCAUGAACCAGUGCGCCACAUGUGAUUUUGAAAUAAACACCUCAACUAGCACUAAUUUUAUUUGCAAUAUUUUUCUAUAAAACAAGUAGCUCUUGGAAAAGAGGUUUUCU	0.405

For quick reference, copied from above (block 5):
Oligonucleotide	RBNS enrichment (R)
CGCUCGGUGGAGGGACGCGUGCGGCGGGACGGUGCCUACGGGUACUUGCAGCUGUGUCCCAUGUGGCAUCCCAGAGCUGCGCCCUGCUGGUCUCUGUGAGCGCCACGCUG	0.274
GUAUGUGGAAUUCUGUCUCUUGGUAAAGCUCAAAGCCAGGCUAGCCUGAGGUGGCGCAGGGCUCUCCUUCCUGUCCCUUCGAUCUCCUUGAGAAUUAAGAGCUGGCAGCU	0.574
GCAUGAACCAGUGCGCCACAUGUGAUUUUGAAAUAAACACCUCAACUAGCACUAAUUUUAUUUGCAAUAUUUUUCUAUAAAACAAGUAGCUCUUGGAAAAGAGGUUUUCU	0.405
